Experimental data collected from several papers.
Compare with care: the assays were run in different laboratories.

Nc1ccc2cc3ccc(N)cc3nc2c1 gave a Cmax of 43800 ng/mL (male CD-1 mouse, lung; intravenous, 15 mg/kg as hydrochloride).
Cc1ccccc1C(=O)NN=Cc1ccc(O)c(Br)c1 gave a Cmax of 375 ng/mL (C3H/HeN mouse IN model, plasma; intraperitoneal, 1.6 mg/kg).
The Cmax of Cc1ccc(F)c2cc(C(=O)N[C@@H]3CCC[C@H](N4CC[C@H](N(C)S(C)(=O)=O)C4)C3)[nH]c12 is reported as 667 ng/mL (CD1 mouse; oral, 30 mg/kg).
The Cmax of O=C1c2c(O)c(=O)ccn2N([C@@H]2c3ccccc3SCc3c2ccc(F)c3F)[C@@H]2COCCN12 is reported as 192 ng/mL (BALB/c mouse; subcutaneous, 4 mg/kg q12h).
For NC(=O)c1cccc(-c2cc(OC(=O)NC3CCCCC3)ccc2O)c1, the Cmax was 12800 ng/mL (mouse, plasma; intravenous, 10 mg/kg).
The Cmax of OB(O)CSc1nc2ccccc2n1Cc1ccc(C(F)(F)F)cc1C(F)(F)F is reported as 8500 ng/mL (mouse, plasma; subcutaneous, 25 mg/kg).
The Cmax of O=c1c2cc(Cl)c(CO)cc2[nH]c(=S)n1Cc1cncnc1 is reported as 142 ng/mL (mouse, plasma; oral, 50 mg/kg).
N#C[C@@]1(n2ccc(N)nc2=O)O[C@H](CO)[C@@H](O)[C@H]1O has a Cmax of 13800 ng/mL (CD-1 mouse, plasma; intravenous, 15 mg/kg, mean).
For CC(C)(C)N1CCC(NC(=O)c2ccc(C(F)(F)F)cc2Cl)CC1, the Cmax was 3.12 µM (BALB/c mouse, plasma; intraperitoneal, 10 mg/kg).

A few entries again:
For CC(C)(C)N1CCC(NC(=O)c2ccc(C(F)(F)F)cc2Cl)CC1, the Cmax was 3.12 µM (BALB/c mouse, plasma; intraperitoneal, 10 mg/kg).
